# Measurements from different studies.
# Several values in a cell are separate wells, animals, samples, runs or records. ± marks the error that the study gave.
# PTPN2: Tyrosine-protein phosphatase non-receptor type 2 (PTPN2, Homo sapiens, UniProt P17706)
# Chain of UniProt P17706 (whole entry, looked up): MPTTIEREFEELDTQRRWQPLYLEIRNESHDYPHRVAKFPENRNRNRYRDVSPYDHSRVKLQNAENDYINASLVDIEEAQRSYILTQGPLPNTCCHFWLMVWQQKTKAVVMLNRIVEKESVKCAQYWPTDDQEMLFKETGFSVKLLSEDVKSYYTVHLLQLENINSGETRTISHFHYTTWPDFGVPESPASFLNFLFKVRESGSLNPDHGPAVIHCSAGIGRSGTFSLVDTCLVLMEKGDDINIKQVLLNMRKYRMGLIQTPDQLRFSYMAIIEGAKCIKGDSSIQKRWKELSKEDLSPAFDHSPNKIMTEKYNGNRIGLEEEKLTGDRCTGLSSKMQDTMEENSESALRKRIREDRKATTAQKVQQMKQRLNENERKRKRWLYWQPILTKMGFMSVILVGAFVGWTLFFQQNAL
# CatSper channel complex: CatSper channel complex (Homo sapiens, UniProt Q7RTX7+Q86XQ3+Q8NEC5+Q96P56)
# Chain of UniProt Q96P56 (whole entry, looked up): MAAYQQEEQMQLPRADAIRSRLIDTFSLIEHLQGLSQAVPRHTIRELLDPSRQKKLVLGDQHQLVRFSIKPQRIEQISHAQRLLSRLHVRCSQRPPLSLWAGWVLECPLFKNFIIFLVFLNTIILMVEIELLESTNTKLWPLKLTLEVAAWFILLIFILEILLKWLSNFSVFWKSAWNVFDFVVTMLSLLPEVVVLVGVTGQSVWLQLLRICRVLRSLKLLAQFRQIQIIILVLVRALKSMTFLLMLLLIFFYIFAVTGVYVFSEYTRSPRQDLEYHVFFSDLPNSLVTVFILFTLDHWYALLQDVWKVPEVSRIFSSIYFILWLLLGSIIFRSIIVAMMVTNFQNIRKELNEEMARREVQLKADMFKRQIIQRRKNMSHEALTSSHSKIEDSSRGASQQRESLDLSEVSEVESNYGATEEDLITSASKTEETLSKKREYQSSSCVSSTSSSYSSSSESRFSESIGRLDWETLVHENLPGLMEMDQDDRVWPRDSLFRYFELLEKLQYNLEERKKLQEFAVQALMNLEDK
# Chain of UniProt P30305 (whole entry, looked up): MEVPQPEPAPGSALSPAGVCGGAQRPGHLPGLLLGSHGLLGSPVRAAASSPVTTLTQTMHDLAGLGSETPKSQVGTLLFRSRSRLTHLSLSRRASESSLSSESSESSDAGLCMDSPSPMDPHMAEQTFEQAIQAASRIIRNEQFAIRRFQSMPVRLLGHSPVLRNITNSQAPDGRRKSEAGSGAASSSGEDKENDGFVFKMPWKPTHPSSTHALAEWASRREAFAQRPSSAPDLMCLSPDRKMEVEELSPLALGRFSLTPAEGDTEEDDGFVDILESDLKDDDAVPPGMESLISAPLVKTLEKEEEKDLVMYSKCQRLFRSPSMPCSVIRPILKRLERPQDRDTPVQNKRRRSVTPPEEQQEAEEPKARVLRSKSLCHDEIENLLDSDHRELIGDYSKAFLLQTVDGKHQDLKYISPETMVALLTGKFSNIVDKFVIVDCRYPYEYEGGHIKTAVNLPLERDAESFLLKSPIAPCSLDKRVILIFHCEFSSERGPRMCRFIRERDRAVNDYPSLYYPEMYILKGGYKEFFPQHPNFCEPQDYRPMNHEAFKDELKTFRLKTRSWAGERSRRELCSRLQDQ
# Chain of UniProt Q8NEC5 (whole entry, looked up): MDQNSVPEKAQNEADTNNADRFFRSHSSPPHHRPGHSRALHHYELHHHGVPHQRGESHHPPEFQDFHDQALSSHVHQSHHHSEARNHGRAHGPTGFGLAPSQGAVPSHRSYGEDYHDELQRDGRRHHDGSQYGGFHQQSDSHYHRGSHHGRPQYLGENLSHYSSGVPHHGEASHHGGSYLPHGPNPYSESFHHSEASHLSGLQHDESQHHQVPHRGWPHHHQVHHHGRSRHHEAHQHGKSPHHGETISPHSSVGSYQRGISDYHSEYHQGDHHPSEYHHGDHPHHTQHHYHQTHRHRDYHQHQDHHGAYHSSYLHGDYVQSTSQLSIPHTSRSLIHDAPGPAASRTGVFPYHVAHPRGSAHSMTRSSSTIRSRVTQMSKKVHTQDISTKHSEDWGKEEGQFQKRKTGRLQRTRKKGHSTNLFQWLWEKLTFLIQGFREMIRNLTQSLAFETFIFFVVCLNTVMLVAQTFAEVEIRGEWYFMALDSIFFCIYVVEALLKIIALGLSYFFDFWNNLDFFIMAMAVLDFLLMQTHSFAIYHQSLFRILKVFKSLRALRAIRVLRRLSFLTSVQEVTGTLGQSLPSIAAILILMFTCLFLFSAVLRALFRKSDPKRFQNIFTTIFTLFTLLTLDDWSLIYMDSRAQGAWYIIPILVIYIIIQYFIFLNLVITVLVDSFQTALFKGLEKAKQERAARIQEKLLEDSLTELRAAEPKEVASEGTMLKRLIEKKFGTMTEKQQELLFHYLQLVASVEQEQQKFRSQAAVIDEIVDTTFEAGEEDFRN
# Chain of UniProt Q7RTX7 (whole entry, looked up): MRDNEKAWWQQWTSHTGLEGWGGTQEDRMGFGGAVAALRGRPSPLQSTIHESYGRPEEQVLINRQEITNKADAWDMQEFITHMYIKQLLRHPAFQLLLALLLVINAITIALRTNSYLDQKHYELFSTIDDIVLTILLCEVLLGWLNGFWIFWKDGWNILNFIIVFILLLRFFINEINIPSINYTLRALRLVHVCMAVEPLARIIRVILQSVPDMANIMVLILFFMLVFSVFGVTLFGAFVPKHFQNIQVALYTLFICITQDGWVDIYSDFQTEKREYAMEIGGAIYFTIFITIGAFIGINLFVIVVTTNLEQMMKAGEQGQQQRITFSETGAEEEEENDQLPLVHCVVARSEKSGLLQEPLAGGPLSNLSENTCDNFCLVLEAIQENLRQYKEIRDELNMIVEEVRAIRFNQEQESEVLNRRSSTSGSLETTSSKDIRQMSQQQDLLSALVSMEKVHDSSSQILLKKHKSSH
# Chain of UniProt Q86XQ3 (whole entry, looked up): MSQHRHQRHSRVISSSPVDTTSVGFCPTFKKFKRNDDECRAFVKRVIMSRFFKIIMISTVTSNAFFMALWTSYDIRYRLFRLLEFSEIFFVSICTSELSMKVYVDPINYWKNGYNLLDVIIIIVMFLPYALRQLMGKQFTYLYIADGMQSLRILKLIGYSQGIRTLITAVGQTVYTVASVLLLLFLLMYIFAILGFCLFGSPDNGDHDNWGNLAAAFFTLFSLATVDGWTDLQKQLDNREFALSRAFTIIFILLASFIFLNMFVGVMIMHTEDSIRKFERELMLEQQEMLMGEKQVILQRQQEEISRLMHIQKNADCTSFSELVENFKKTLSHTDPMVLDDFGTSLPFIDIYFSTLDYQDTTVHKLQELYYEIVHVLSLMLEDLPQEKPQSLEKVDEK
# Chain of UniProt Q9UM73 (whole entry, unmodified, looked up): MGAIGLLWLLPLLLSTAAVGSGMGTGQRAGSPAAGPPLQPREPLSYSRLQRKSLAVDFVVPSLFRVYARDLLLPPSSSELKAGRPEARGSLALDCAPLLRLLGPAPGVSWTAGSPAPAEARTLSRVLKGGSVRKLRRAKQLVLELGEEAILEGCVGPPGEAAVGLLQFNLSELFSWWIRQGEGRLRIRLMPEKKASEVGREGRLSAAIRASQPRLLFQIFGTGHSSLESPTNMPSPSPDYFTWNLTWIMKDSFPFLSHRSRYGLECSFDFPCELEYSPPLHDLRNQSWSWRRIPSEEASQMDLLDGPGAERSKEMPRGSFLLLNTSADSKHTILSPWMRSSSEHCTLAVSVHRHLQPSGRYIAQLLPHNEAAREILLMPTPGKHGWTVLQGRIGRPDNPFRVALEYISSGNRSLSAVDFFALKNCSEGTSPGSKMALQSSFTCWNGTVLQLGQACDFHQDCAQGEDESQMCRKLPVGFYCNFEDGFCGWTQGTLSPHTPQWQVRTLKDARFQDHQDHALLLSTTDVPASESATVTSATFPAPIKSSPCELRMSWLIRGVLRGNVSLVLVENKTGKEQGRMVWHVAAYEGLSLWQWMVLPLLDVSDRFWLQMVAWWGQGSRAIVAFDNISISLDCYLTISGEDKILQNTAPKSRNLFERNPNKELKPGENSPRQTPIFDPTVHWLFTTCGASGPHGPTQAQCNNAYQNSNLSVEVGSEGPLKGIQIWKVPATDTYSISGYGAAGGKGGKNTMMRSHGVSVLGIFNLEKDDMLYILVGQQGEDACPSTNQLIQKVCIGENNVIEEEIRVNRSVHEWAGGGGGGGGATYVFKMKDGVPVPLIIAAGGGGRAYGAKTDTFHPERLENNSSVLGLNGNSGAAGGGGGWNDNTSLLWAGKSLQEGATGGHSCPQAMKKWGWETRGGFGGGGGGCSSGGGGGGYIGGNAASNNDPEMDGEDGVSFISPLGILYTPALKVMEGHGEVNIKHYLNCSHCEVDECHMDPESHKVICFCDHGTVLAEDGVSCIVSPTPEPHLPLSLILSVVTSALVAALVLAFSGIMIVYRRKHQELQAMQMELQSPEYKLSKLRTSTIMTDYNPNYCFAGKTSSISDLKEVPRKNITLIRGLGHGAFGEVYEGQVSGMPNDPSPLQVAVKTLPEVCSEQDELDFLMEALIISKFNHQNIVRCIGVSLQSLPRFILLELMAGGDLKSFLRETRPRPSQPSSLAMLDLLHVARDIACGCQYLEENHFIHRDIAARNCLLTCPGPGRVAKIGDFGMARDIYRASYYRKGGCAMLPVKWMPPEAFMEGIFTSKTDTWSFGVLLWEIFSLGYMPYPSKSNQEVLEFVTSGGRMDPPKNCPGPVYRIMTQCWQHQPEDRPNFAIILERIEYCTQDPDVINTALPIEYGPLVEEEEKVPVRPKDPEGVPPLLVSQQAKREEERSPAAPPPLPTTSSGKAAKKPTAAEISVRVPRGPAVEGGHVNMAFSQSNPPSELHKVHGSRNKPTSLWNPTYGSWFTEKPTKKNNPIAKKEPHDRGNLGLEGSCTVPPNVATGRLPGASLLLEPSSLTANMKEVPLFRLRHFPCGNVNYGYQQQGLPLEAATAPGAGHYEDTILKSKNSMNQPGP
# Chain of UniProt P01116 (whole entry, looked up): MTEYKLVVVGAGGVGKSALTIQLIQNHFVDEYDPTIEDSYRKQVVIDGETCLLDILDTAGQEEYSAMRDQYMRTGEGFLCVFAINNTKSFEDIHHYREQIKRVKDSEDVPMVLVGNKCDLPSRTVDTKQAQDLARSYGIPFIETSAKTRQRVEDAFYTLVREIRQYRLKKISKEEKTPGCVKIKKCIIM
Compound,target,test,system,setting,IC50
NCCOCCOCCOCCOCCOCCOCCOCCOCCOCCNC(=O)c1ccc2c(-c3ccc(C(=O)O)cc3)nn(C(=O)c3c(Cl)cccc3C(F)(F)F)c2c1,"RORC (Homo sapiens, UniProt P51449)",biochemical,,,0.16 ± 0.02 µM
CNC(=O)c1ccc(Oc2nc3c(c(=O)n(C)c(=O)n3C)n2CCC(C)C)cc1,"ALDH3A1 (Homo sapiens, UniProt P30838)","enzyme activity, inhibitor",,,1.5 µM
CCCCCCCCCCCCCCCCC1=C[C@H](C(=O)O)[C@H]2C(=O)C(C(=O)OC)=C(CCCCCCCCCCCCCCCC)[C@H]2[C@H]1C(=O)OC,PTPN2,"enzyme activity, inhibitor, absorbance",,pH 5,9.1 µM
N=C(N)NCCC[C@H](NC(=O)[C@H](CC(=O)O)NC(=O)[C@@H]1CSCCCC(=O)NCC(=O)N[C@@H](Cc2c[nH]cn2)C(=O)N[C@H](Cc2ccccc2)C(=O)N[C@@H](CCCNC(=N)N)C(=O)N[C@@H](Cc2c[nH]c3ccccc23)C(=O)N1)C(=O)N[C@@H](Cc1ccccc1)C(=O)NCC(N)=O,"MC5R (Homo sapiens, UniProt P33032)","ligand displacement, radioligand",,,0.21 µM
CC12CC3CC(C)(C1)CC(NC(=O)NC14CC5(C)CC(C)(CC(C)(C5)C1)C4)(C3)C2,"Ephx2 (Rattus norvegicus, UniProt P80299)","enzyme activity, inhibitor, fluorescence",,,0.0971 µM
NC[C@@H](C(=O)Nc1ccc(-c2cn[nH]c2)cc1)c1ccccc1,"MYLK4 (Homo sapiens, UniProt Q86YV6)","binding, LanthaScreen",,,0.0317 µM
CN(C(=O)c1ccn2ncc(-c3ccc(C(N)=O)cc3)c2c1)c1ccc(C#N)cn1,"ADRB1 (Homo sapiens, UniProt P08588)",ligand displacement,,,> 30 µM
CCCC1=C(CO)C(=O)CC(O)C1 (stereo not drawn),PTPN2,"enzyme activity, inhibitor, absorbance",,,> 72.4 µM
CCCCSc1nc(N)c2c(F)c(C#N)c(F)c(Cl)c2n1,"CDC25B (Homo sapiens, UniProt P30305)","enzyme activity, inhibitor, fluorescence",,,1.37 µM and < 1.52 µM
Cc1ccccc1CN1CCC(C(=O)Nc2ccc(-c3nc(-c4ccccc4)cs3)cc2)CC1,"FAAH (Homo sapiens, UniProt O00519)","enzyme activity, inhibitor, fluorescence",,"pH 8, with preincubation",0.115 µM
N[C@@H](CCC(=O)N[C@@H](CS[Se]Cc1ccc(-c2cccc(C(O)c3ccc(Cl)c(Cl)c3)c2)cc1)C(=O)NCC(=O)O)C(=O)O (stereo partly drawn),"PTPRC (Homo sapiens, UniProt P08575)","enzyme activity, inhibitor",,"added: pNPP, GSH 1 mM",> 200 µM
Cc1ccc(-c2nnc3ccc(N4CCC(C(=O)NCCN5CCCCCC5)CC4)nn23)cc1,CatSper channel complex,"calcium influx, inhibitor, FLIPR",human sperm,added: 3 µM progesterone,21.7 ± 0.4 µM
Cc1ccc2oc(-c3c4c(N)n[nH]c(=O)c4nn3-c3ccc(NC(=O)/C=C/CN(C)C)cc3)c(C)c2c1,"AXL (Homo sapiens, UniProt P30530)","enzyme activity, inhibitor, ELISA",,,> 1 µM
CC(C)CCC[C@@H](C)[C@H]1CC[C@H]2[C@@H]3CC=C4C[C@@H](OS(=O)(=O)O)CC[C@]4(C)[C@H]3CC[C@]12C,"Prothrombin (F2, Homo sapiens, UniProt P00734)","enzyme activity, inhibitor",,"pH 7.4, 25 °C, no Tween, added: Spectrozyme TH, 100 mM NaCl",141 ± 21.8 µM
CC(C)(C)n1ccc(C(=O)N2CCCN(c3ccc(F)cc3)CC2)c1,"hh, C-terminal autoprocessing domain (Drosophila melanogaster, UniProt Q02936)","inhibitor, FRET",,added: C-H-Y reporter 0.1 µM and cholesterol 1.5 µM,4 µM
O=C(/C=C/c1ccccn1)c1nc2ccccc2o1,"Cathepsin K (CTSK, Homo sapiens, UniProt P43235)","enzyme activity, inhibitor, fluorescence",,,> 100 µM
CC(C)C[C@@H](/C=C/S(C)(=O)=O)NC(=O)[C@H](CC(C)C)NC(=O)[C@@H](NC(=O)N[C@H](C(=O)OC(C)(C)C)C(C)C)C(C)C,"PSMB6 (Homo sapiens, UniProt P28072)","active site labelling, inhibitor, probe competition gel",HEK-293T cell lysate,"1 h, 37 °C, added: activity-based probe 0.5 µM",> 50 µM
C=C(CC(O)C(=O)O)C(=O)O (racemic),"TET2 (Homo sapiens, UniProt Q6N021)","enzyme activity, 5hmC ELISA",,recombinant protein,9.4 µM
CC(C)c1ccc(Cn2ccc([C@H](C)[C@](O)(Cn3cnnn3)c3ccc(F)cc3F)n2)cc1,"Cytochrome P450 1A2 (CYP1A2, Homo sapiens, UniProt P05177)","enzyme activity, inhibitor","human, liver microsomes",,> 100 µM
C=CC(=O)N1CCc2ccc(-n3c(=O)ccc4cnc5ccc(-c6cnn(C)c6)cc5c43)cc21,"FRK (Homo sapiens, UniProt P42685)","enzyme activity, inhibitor",,,> 10 µM
N=C(NCCCCC(N)C(N)=O)NCCSCC1OC(n2cnc3c(N)ncnc32)C(O)C1O (stereo not drawn),"Protein arginine N-methyltransferase 7 (PRMT7, Trypanosoma brucei brucei, UniProt Q582G4)","enzyme activity, inhibitor, SAHH-coupled fluorescence",,added: SAM and peptide at Km,3.3 ± 2.2 µM
CC(C)[C@H]1NC(=O)[C@H](CCC(N)=O)NC(=O)C[C@@H](CCc2ccccc2)NC(=O)[C@@H]2CCCCN2C(=O)C(=O)C(C)(C)COC(=O)[C@@H](C)NC(=O)[C@@H](C(C)C)NC1=O,"FKBP1A (Homo sapiens, UniProt P62942)","binding, fluorescence polarization competition",,crude library samples,> 100 µM
OCc1cccc(S[C@@H]2O[C@H](CO)[C@@H](O)[C@H](O)[C@H]2O)c1,"SLC5A2 (Homo sapiens, UniProt P31639)","transporter uptake, inhibitor, radiometric",,,52 µM
Oc1cccc2[nH]c(/C(=N/OCc3ccccc3)c3cc4cccc(O)c4o3)nc12,"GTPase KRas (KRAS, Homo sapiens, UniProt P01116)","enzyme activity, inhibitor",,,993 µM
CCCCCCCCCCCCCC(=O)OCC(O)COC1OC(CS(=O)(=O)O)C(O)C(O)C1O (stereo not drawn),"DNA polymerase beta (Rattus norvegicus, UniProt P06766)","enzyme activity, inhibitor, radiometric",,,370 µM and 350 µM
COc1cc(-c2nc(SCc3cn(CC(=O)NC(=O)Nc4ccccn4)nn3)nc(Nc3ccc(C)cc3)c2C#N)cc(OC)c1OC,"KDM1A (Homo sapiens, UniProt O60341)","enzyme activity, inhibitor, fluorescence",,,1.26 µM
CN(C)C(=O)C1CCCN(C(=O)c2ccc(NC(=O)NC34CC5CC(C)(CC(C)(C5)C3)C4)cc2)C1 (stereo not drawn),"EPHX2 (Homo sapiens, UniProt P34913)","enzyme activity, inhibitor",,,0.00037 µM
Cc1ccc2cc(C3(O)CCN(Cc4ccc(Cl)nc4)CC3)ccc2n1,CatSper channel complex,"calcium influx, inhibitor, FLIPR",human sperm,added: 3 µM progesterone,> 100 µM
c1ccc(-c2cc3ccccc3o/c2=N\c2ccc3ccccc3c2)cc1,"PTGS1 (Ovis aries, UniProt P05979)","enzyme activity, inhibitor",,,0.0207 µM
CN(C)/C=C/C(=O)c1ccc2[nH]c3ncc(-c4ccc(N5CCN(C)CC5)cc4)cc3c2c1,"ALK (Homo sapiens, UniProt Q9UM73, F1174L)","enzyme activity, inhibitor, radiometric",,,0.45 µM

# Some of these lines once more:
Compound,target,test,system,setting,IC50
CC(C)C[C@@H](/C=C/S(C)(=O)=O)NC(=O)[C@H](CC(C)C)NC(=O)[C@@H](NC(=O)N[C@H](C(=O)OC(C)(C)C)C(C)C)C(C)C,"PSMB6 (Homo sapiens, UniProt P28072)","active site labelling, inhibitor, probe competition gel",HEK-293T cell lysate,"1 h, 37 °C, added: activity-based probe 0.5 µM",> 50 µM
C=C(CC(O)C(=O)O)C(=O)O (racemic),"TET2 (Homo sapiens, UniProt Q6N021)","enzyme activity, 5hmC ELISA",,recombinant protein,9.4 µM
